{"data": "Measured values gathered from unrelated publications", "note": "Parts stem from different laboratories: compare values within a part only. Substitutions count along the parent as printed."}
{"data": "Study 1", "target": "TAR DNA-binding protein 43, full length, His tag (TARDBP, Homo sapiens, UniProt Q13148, residues 1-414)", "method": "RNA Bind-n-Seq", "molecule type": "RNA", "sample": "in vitro", "tested at": "20 nM", "setting": "6-mer, flanks averaged, single round", "added": "150 mM KCl", "reference": "input library", "reading": "higher = stronger binding"}
{"Strand": "GCACUU", "6-mer enrichment (R)": 0.65}
{"Strand": "CAAUUU", "6-mer enrichment (R)": 0.643}
{"Strand": "GCCGUG", "6-mer enrichment (R)": 1.39}
{"Strand": "AUUAUG", "6-mer enrichment (R)": 0.672}
{"Strand": "ACACCG", "6-mer enrichment (R)": 0.747}
{"Strand": "GUGUCA", "6-mer enrichment (R)": 0.859}
{"Strand": "ACUACA", "6-mer enrichment (R)": 0.613}
{"Strand": "GGAACG", "6-mer enrichment (R)": 2.07}
{"data": "Study 2", "target": "RING finger protein unkempt homolog, zinc fingers 1-6, GST-SBP tag (UNK, Homo sapiens, UniProt Q9C0B0, residues 30-357)", "method": "RNA Bind-n-Seq", "molecule type": "RNA", "sample": "in vitro", "tested at": "not given", "setting": "RNA with constant flanks, human-mouse chimeric sites, ends assumed", "reference": "input RNA pool", "reading": "higher = stronger binding", "all sequences stand within": "GGGAGUUCUACAGUCCGACGAUC … CAACAGAGGAUUGAGCAUCA", "Target sequence (chain)": "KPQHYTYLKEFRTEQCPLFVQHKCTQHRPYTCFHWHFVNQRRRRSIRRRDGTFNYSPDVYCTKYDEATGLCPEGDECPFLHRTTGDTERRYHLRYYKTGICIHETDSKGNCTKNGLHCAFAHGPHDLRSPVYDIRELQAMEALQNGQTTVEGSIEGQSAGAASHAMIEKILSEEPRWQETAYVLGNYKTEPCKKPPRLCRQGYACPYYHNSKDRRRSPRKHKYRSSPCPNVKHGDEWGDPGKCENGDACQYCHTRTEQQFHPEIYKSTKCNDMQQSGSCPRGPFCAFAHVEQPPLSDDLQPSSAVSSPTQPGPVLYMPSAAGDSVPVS"}
{"Strand": "CUGAGGAUACCACUGAAAGAGACAUUAAAGAAUCAUUUGAGGGCUCUGUUCGUGCAAGAAUAGUCACUGAUCGGGAAAACUGGGUCCCCAAAGGGUUUGGUUUUGUAGACUUUAAUAGUG", "bound/input enrichment [ratio]": 0.411}
{"Strand": "AAAGCCCAAGUAUUUUGAAAAAACUCGAACAGAUUUGACAAGGGUAGCCAGCUUGGAGUCUAGCAAUUUGCCAAUGUUGCUUACCAACUGGGGGCUUGUUUUUCUUUUCUUCUUUCAAAU", "bound/input enrichment [ratio]": 0.212}
{"Strand": "UGACAAGGGCACUGCAGAGCCAUGCCUUUCCUUGACAUCCAGAAAAGGCUGGGCAUCAGCCUGGACCGGCACUUUAUGUUCCUAAGCGGUGAACAGCCCUAUAAGAACGCCGCUCGGUGC", "bound/input enrichment [ratio]": 0.0611}
{"Strand": "CCAAUUGUGGAGCAGUACUUGAAGACAAAGAAAAAUUCUAAUAAUUUAAUCAUCAAGUACAUUAGCUGCCGGCUGGUGACACUCAUCAUUAUACUGUUAGCGUGUAUCUACUUGAGCUAU", "bound/input enrichment [ratio]": 0.314}
{"Strand": "AUGGUUGUGUCUCUUGAGAUCUAAAAACAAGAUGACUUUUCCUGGCACAUAUUCCAAAGCAAAGACUUUGUUGCCUGCUGCUUAUUGUCUAAUUUACAGGGAUAUUUAAUUUUGUCAGGU", "bound/input enrichment [ratio]": 0.307}
{"Strand": "GAAAGAGAACUAAAGCAACUAAUAGAGAAGAGGAUUGGGCAAAGAGAUUUCAUAGAGAAACUAGGAUUUAUUAGCAAACAUGAGUUAUAUUCCAGAGCGUCUCAGAAACCCCAGCCAAAC", "bound/input enrichment [ratio]": 3.52}
{"Strand": "CUGGCCUUCUGAGCAUCAGGGGCCUCCUUUCGUAUAGUCACUGCUUCUGCAUCAGAUACUUUCAGCUGCAACUCCCUACUGGGUGGGGCACCUAUCUCAGGCAGAAGGUUUUGGUACCCU", "bound/input enrichment [ratio]": 0.128}
{"Strand": "AGAUUCCCCCUCCUGAGGCCUUCUCCAAAGUUGGAGUCUCUUACAGAUGCCUCAUCCCCUGUUAGCGUUUUAGUUUGGACCACCCAGCCUUGGACGAUUCCCGCCAACCAGGCAAUUUGC", "bound/input enrichment [ratio]": 1.69}
{"data": "Study 3", "target": "Interferon regulatory factor 5, full length, phosphomimetic (IRF5, Homo sapiens, UniProt Q13568-2, residues 1-514, S451D/S453D/S456D/S462D)", "method": "protein-binding microarray", "molecule type": "double-stranded DNA, one strand shown", "sample": "in vitro", "tested at": "940 nM top", "setting": "60-bp whole probe", "added": "salmon DNA 0.4 mg/ml", "reference": "random background probes", "reading": "higher = stronger binding", "all sequences stand within": "GCCTAGCAC … GTCTTGATTCGCTTGACGCTGCTG"}
{"Strand": "GACGGACTGCCTTTCCTGACGTGCTAG", "fitted relative affinity": "-0.219 z-score"}
{"Strand": "GACGGTACCGGTTTCGGGACGTGCTAG", "fitted relative affinity": "3.99 z-score"}
{"Strand": "TCAGGTATCGGTATCGGTTAGTGCTAG", "fitted relative affinity": "10.4 z-score"}
{"Strand": "TCATGTCTGTTTTTGCTACTGTGCTAG", "fitted relative affinity": "0.744 z-score"}
{"Strand": "GACGGTATCGACTTTCGGGAGGTGCTA", "fitted relative affinity": "4.46 z-score"}
{"Strand": "TTAGGTTTCGGTATCGGCTAGTGCTAG", "fitted relative affinity": "15.2 z-score"}
{"Strand": "GACGGTCTCGGACTGGCGACGTGCTAG", "fitted relative affinity": "0.594 z-score"}
{"Strand": "TTAGAACTGAGTCTCCATTAGTGCTAG", "fitted relative affinity": "-0.255 z-score"}
{"data": "Single results of other studies", "parent": "viral docking peptide; KKAKRRLFTISDS"}
{"Variant": "K4A", "target": "CCNB1, cyclin fold, Cln2 fusion (human)", "assay": "yeast growth competition, sequencing", "system": "yeast", "setting": "weak parent motif", "scale": "reference: not given, higher = stronger binding", "quantity": "normalised enrichment score", "value": 0.347}
{"note": "Some of these lines once more (single results of other studies):"}
{"Variant": "K4A", "target": "CCNB1, cyclin fold, Cln2 fusion (human)", "assay": "yeast growth competition, sequencing", "system": "yeast", "setting": "weak parent motif", "scale": "reference: not given, higher = stronger binding", "quantity": "normalised enrichment score", "value": 0.347}
